Published values from different studies.
Compare with care: the assays were run in different laboratories.

Compound	tested on	test	test system	setting	how to read	endpoint	value
C[C@@H]1OC(=O)NN=C1c1ccc(-c2ccc(F)cc2)c(C(F)(F)F)c1	–	phase I trial, measured: Fatigue all grades	human patients	dose not given, all dose groups	–	patients with adverse event	60%
C[C@]1(O)C[C@@](N)(c2ccc(-c3nc4n(c3-c3ccccc3)COc3ccncc3-4)cc2)C1	–	–	human, advanced or metastatic solid tumours	once daily, dose escalation total, any grade	–	patients with Fatigue TEAE	22.2%
CCCN(CCC)CCCNC(=O)C1CCCN(Cc2nc(-c3ccc(Cl)cc3)oc2C)C1 (stereo not shown)	Vero-E6	CellTiter-Glo ATP	–	concentration not given, 72 h, second round 5-point	relative to: DMSO 0%, hyamine -100%, more negative, more toxic	cytotoxicity efficacy	-19%
C=CC(=O)Nc1cc(Nc2nccc(Nc3cc(Cl)c(F)cc3C(C)(C)O)n2)c(OC)cc1N1CC[C@@H](N(C)C)C1	–	–	human patients	oral, 50 mg, treatment-emergent adverse events	–	patients with paronychia	16.7%
O=C1Nc2cc3[nH]nc(-c4ccncc4)c3cc2CN1Cc1ccccc1	–	CTCAE v4.03	human, relapsed or refractory advanced solid tumours	intravenous, 0.45 mg/kg, pooled schedules	–	patients with nausea	0%
COc1ccc(-c2c(-c3ccc(C#N)c(F)c3)nc(N3CCC(N)CC3)n(C)c2=O)cc1F	–	measured: metastases to skin	human patients	oral, 60 mg, dose expansion	–	patients with serious TEAE	0%
Cc1cn([C@H]2O[C@@H](CO[P@@](=O)(N[C@@H](C)C(=O)OC(C)C)Oc3ccccc3)[C@H](O)[C@H]2F)c(=O)[nH]c1=O	–	measured: ALT/AST elevated	human	50 mg	–	patients with TEAE	0%
COc1ncnn2ccc(-c3cnc4nc(C)n(Cc5nnc([C@@H](C)F)o5)c4c3)c12	–	–	human	oral, dose not given, grade 5	–	patients with tumour lysis syndrome	0%
CCC1CCCCN1CCCNC(=O)c1sc2nc(C)cc(C)c2c1-n1cccc1 (stereo not shown)	Vero-E6	CellTiter-Glo ATP	–	concentration not given, 72 h, first round 5-point	relative to: DMSO 0%, hyamine -100%, more negative, more toxic	cytotoxicity efficacy	0%
Cn1cncc1-c1c(F)cncc1NC(=O)c1c(N)nn2cc(F)cnc12	–	–	human patients	oral, dose not given, all doses	–	patients grade ≥3 Neutrophil count decrease	7%

Excerpt of the above:
Compound	tested on	test	test system	setting	how to read	endpoint	value
C[C@]1(O)C[C@@](N)(c2ccc(-c3nc4n(c3-c3ccccc3)COc3ccncc3-4)cc2)C1	–	–	human, advanced or metastatic solid tumours	once daily, dose escalation total, any grade	–	patients with Fatigue TEAE	22.2%
